Measured values from different studies.
Protocols differ between the studies behind these lines. ± gives the spread as reported.
UDP-3-O-acyl-N-acetylglucosamine deacetylase C40S: UDP-3-O-acyl-N-acetylglucosamine deacetylase (Pseudomonas aeruginosa, UniProt P47205, C40S)
SRC SH2 domain: Proto-oncogene tyrosine-protein kinase Src, SH2 domain (SRC, Homo sapiens, UniProt P12931)
Chain of UniProt P04756 (whole entry, unmodified, looked up): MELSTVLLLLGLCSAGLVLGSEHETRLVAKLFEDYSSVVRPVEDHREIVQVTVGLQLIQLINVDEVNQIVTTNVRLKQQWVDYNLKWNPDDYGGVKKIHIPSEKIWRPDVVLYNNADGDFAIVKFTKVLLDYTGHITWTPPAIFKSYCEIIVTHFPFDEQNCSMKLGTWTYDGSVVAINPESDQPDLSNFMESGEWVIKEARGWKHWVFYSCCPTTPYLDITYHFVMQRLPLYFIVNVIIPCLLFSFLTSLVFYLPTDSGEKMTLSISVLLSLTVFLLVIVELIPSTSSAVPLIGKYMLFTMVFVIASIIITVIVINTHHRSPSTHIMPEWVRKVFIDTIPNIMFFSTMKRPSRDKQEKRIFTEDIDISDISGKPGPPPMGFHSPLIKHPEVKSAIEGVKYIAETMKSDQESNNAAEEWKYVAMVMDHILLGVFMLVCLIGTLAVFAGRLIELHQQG
Chain of UniProt P20782 (whole entry, unmodified, looked up): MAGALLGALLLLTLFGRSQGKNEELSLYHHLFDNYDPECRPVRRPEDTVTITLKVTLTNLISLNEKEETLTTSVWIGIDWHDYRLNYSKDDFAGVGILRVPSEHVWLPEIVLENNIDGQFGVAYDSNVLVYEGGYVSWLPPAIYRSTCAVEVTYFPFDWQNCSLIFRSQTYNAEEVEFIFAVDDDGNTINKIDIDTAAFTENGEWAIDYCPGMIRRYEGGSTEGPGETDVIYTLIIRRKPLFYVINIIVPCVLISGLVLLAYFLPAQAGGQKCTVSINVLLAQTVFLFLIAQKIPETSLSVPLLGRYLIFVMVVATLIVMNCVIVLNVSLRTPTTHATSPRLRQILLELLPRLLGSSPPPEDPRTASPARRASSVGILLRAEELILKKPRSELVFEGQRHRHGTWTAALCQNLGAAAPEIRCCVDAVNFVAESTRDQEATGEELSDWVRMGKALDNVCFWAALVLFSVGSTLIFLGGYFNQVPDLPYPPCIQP
Chain of UniProt P02716 (whole entry, unmodified, looked up): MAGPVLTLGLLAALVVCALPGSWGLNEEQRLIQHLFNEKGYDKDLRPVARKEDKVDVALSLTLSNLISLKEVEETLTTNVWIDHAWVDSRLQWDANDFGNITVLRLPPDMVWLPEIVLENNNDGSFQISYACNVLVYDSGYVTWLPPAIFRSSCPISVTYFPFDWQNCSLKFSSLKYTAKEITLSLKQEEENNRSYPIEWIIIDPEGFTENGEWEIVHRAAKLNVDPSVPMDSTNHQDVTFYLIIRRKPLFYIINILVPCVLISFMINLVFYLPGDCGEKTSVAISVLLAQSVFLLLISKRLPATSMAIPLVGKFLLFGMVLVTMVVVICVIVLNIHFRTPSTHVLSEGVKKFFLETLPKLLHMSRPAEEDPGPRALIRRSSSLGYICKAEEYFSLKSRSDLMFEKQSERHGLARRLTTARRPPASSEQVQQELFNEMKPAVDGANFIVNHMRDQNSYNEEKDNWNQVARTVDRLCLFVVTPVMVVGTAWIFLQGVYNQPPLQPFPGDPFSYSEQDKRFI
Chain of UniProt Q55080 (whole entry, unmodified, looked up): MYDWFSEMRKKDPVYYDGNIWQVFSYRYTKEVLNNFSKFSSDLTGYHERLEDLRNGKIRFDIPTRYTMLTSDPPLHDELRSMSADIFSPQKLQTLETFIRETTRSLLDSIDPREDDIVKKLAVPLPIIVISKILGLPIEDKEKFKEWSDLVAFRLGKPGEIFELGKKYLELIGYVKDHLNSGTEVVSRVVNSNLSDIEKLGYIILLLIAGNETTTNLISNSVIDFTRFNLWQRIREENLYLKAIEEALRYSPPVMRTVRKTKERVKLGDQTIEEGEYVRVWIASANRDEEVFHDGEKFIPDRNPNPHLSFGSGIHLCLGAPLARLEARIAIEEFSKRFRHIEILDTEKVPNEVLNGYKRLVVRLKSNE
Chain of UniProt P40337 (whole entry, unmodified, looked up): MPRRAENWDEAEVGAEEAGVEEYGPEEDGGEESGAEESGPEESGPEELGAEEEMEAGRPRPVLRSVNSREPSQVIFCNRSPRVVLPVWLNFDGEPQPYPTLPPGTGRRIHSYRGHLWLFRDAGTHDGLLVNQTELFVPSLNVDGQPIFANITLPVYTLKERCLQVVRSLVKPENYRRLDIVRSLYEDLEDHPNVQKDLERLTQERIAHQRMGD
Chain of UniProt P53350 (whole entry, unmodified, looked up): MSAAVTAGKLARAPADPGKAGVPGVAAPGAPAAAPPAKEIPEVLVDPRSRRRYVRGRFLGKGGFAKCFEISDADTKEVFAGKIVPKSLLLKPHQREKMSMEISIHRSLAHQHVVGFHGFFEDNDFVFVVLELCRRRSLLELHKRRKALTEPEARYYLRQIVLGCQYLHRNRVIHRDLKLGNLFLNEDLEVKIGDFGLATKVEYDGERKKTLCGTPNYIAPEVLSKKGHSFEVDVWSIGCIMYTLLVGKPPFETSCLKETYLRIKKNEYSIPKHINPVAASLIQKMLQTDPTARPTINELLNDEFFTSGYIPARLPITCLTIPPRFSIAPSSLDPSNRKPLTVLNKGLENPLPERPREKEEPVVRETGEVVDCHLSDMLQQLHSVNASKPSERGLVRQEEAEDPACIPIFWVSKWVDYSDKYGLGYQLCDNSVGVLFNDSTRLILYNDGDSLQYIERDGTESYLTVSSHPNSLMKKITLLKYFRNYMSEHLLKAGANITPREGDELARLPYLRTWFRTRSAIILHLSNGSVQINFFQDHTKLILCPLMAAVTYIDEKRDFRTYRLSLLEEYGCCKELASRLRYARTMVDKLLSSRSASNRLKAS
Chain of UniProt B3H615 (whole entry, looked up): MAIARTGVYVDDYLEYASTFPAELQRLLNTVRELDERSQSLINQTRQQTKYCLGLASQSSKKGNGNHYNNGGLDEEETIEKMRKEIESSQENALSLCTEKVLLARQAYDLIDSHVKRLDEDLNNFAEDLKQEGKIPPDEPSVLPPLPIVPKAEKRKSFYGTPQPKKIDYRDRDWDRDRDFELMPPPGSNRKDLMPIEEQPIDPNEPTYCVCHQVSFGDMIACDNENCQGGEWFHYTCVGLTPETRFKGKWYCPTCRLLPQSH
Chain of UniProt Q53GS9 (whole entry, looked up): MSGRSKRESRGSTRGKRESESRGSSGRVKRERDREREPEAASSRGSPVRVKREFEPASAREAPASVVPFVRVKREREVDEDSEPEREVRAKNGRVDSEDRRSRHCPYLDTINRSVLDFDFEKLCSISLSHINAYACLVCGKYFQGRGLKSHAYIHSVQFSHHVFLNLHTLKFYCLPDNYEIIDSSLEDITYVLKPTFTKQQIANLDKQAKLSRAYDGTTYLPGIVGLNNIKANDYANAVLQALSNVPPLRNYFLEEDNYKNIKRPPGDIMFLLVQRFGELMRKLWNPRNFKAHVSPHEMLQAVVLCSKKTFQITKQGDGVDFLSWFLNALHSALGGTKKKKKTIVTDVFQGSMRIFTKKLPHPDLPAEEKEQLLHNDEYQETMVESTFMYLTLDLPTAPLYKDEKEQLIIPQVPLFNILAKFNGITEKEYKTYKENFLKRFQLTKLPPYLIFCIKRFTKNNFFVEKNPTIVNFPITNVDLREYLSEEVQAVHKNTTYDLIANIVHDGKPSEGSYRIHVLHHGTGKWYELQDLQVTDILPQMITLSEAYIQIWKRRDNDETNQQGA
Chain of UniProt Q8TEY7 (whole entry, looked up): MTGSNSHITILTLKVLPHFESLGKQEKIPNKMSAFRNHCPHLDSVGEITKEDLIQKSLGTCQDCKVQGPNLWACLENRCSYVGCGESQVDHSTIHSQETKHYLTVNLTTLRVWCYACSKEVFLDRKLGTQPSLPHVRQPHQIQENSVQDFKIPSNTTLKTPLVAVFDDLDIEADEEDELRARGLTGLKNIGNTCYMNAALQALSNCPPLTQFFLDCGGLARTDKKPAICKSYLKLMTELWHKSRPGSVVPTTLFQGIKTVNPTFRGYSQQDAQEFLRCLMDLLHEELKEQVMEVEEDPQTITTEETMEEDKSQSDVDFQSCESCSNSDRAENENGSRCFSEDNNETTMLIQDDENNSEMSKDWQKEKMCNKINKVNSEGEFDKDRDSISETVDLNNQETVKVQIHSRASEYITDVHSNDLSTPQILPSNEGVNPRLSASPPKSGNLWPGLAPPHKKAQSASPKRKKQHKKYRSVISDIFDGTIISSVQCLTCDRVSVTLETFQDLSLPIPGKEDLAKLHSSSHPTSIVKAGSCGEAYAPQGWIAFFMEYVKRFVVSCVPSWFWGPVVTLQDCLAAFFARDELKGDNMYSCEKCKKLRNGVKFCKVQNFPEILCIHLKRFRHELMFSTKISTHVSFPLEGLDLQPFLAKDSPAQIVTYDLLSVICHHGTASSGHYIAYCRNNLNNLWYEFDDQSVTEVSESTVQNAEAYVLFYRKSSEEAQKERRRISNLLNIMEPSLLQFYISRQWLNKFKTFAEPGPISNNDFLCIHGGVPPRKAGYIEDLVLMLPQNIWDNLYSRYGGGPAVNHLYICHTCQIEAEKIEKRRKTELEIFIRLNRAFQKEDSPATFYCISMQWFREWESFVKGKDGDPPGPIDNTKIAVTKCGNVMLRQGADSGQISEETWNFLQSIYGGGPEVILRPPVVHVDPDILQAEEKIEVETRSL

SMILES	target	assay	test system	setting	Kd [µM]
CC(C)C[C@@H]1NC(=O)CNC(=O)[C@H](CC(C)C)NC(=O)[C@@H]2CCCN2C(=O)[C@H](CC(=O)O)NC(=O)[C@H](Cc2ccc(O)cc2)NC(=O)CNC(=O)[C@@H](Cc2ccc(O)cc2)NC(=O)CSC[C@@H](C(N)=O)NC(=O)[C@H](C)NC(=O)[C@H](Cc2ccccc2)NC(=O)[C@H](Cc2ccc(O)cc2)NC(=O)[C@H](CCCCN)NC1=O	VPS26A/VPS35/VPS29 (Homo sapiens, UniProt O75436+Q96QK1+Q9UBQ0)	binding			0.025 ± 0.001
O=C(O)CNC(=O)c1cccnc1	Ubiquitin carboxyl-terminal hydrolase 39, ZnF-UBD domain (Homo sapiens, UniProt Q53GS9)				> 1000
Cc1cccc(C)c1NC(=O)[C@@H]1CCCCN1C	Sodium channel protein type 4 alpha, BTX-activated (Oryctolagus cuniculus, UniProt G1SLL9)	binding			1200
c1cncc([C@@H]2CCCCN2)c1	Chrnd/Chrna1/Chrne (Mus musculus, UniProt P02716+P04756+P20782, G173K/S470W)	resting state binding, agonist, single-channel kinetics			2.2
CCCC1COC(Cn2cncn2)(c2ccc(Cl)cc2Cl)O1 (stereo not drawn)	Cytochrome P450 2A6 (CYP2A6, Homo sapiens, UniProt P11509)	binding		20 min, pH 7.4, purified protein, 2% DMSO	25.1
NCCc1ccccc1	SAR11_0271 Candidatus Pelagibacter	binding, ITC			8
CC(=O)N[C@@H](CC(N)=O)C(=O)N[C@@H](CC(C)C)C(=O)NCC(=O)N[C@@H](CCCCN)C(=O)N[C@@H](Cc1c[nH]cn1)C(=O)N[C@@H](CCC(=O)O)C(=O)N[C@@H](CCCCN)C(=O)N[C@@H](Cc1ccccc1)C(=O)N[C@@H](CO)C(=O)N[C@@H](CCC(=O)O)C(=O)N[C@H](C(=O)N[C@@H](CC(C)C)C(=O)N[C@@H](CCCCN)C(=O)N[C@@H](CCCNC(=N)N)C(=O)N[C@@H](CC(C)C)C(=O)N[C@@H](CCCNC(=N)N)C(=O)N[C@@H](CC(C)C)C(=O)N[C@@H](CCC(N)=O)C(N)=O)C(C)C	Calmodulin-1 (CALM1, Homo sapiens, UniProt P0DP23)	isothermal titration calorimetry	full-length calmodulin	single average binding constant, added: 1 mM CaCl2	1.56
CC[C@H](C)[C@H](NC(=O)[C@H](CCCCN)NC(=O)[C@@H](NC(=O)[C@H](CCCNC(=N)N)NC(=O)[C@@H](NC(=O)c1ccc2c(c1)C(=O)OC21c2ccc(O)cc2Oc2cc(O)ccc21)[C@@H](C)O)[C@@H](C)O)C(=O)N[C@@H](CC(=O)O)C(=O)N[C@@H](Cc1c[nH]c2ccccc12)C(=O)NC(C)(C)C(=O)N[C@@H](CCCCN)C(=O)N[C@H](C(=O)N[C@@H](CC(C)C)C(=O)NC(C)(C)C(=O)NCC(=O)NCC(=O)NCC(=O)N[C@@H](CSC1CC(=O)N(CCCCCCN2C(=O)CC(SC[C@H](NC(=O)CNC(=O)CNC(=O)CNC(=O)C(C)(C)NC(=O)[C@H](CC(C)C)NC(=O)[C@@H](NC(=O)[C@H](CCCCN)NC(=O)C(C)(C)NC(=O)[C@H](Cc3c[nH]c4ccccc34)NC(=O)[C@H](CC(=O)O)NC(=O)[C@@H](NC(=O)[C@H](CCCCN)NC(=O)[C@@H](NC(=O)[C@H](CCCNC(=N)N)NC(=O)[C@@H](NC(=O)c3ccc4c(c3)C(=O)OC43c4ccc(O)cc4Oc4cc(O)ccc43)[C@@H](C)O)[C@@H](C)O)[C@@H](C)CC)[C@@H](C)CC)C(=O)NCC(N)=O)C2=O)C1=O)C(=O)NCC(N)=O)[C@@H](C)CC (stereo partly drawn)	Protein S100-B (Rattus norvegicus, UniProt P04631)	fluorescence anisotropy		pH 7.4, Ca2+ present, added: 50-100 nM fluorescein-labelled peptide	0.03 ± 0.009
CCC1=C(C)C2=Cc3c(C)c(CCC(=O)O)c4[n]3[Ir-2]35([CH3])[n]6c(c(C)c(CC)c6=CC6=[N+]3C(=C4)C(CCC(=O)O)=C6C)=CC1=[N+]25	Cytochrome P450 119 (cyp119, Sulfolobus acidocaldarius, UniProt Q55080, L155W/T213G/V254L/C317G)	binding			4.1
O=[N+]([O-])c1ccc2c(N=Nc3ccc4ccccc4c3O)c(O)cc(S(=O)(=O)O)c2c1	Diphosphomevalonate decarboxylase (Staphylococcus epidermidis, UniProt Q9FD73, W153F)				0.2 ± 0.015
C[C@@H](O)[C@H](NC(=O)c1ccc(-c2ccc(Br)cc2)cc1)C(=O)NCC1(C)NC(=O)NC1=O (stereo partly drawn)	UDP-3-O-acyl-N-acetylglucosamine deacetylase C40S	binding			> 100
C[C@H](N)C(=O)N[C@@H](CCCNC(=N)N)C(=O)N[C@H](C(=O)N[C@@H](CCCC[N+](C)(C)C)C(=O)N[C@@H](CCC(N)=O)C(=O)N[C@H](C(=O)N[C@@H](C)C(=O)N[C@@H](CCCNC(=N)N)C(=O)N[C@@H](CCCCN)C(=O)N[C@@H](CO)C(=O)O)[C@@H](C)O)[C@@H](C)O	PHD finger protein ING2, PHD finger (ING2, Arabidopsis thaliana, UniProt B3H615)	binding, isothermal titration calorimetry		pH 7.0, added: histone H3 peptide	2.91
CC(=O)N[C@@H](CC(C)C)C(=O)N[C@@H](CC(=O)O)C(=O)N1CCC[C@H]1C(=O)N1CCC[C@H]1C(=O)N[C@@H](CC(C)C)C(=O)N[C@@H](Cc1c[nH]cn1)C(=O)N[C@@H](CO)C(=O)N[C@H](C(=O)N[C@@H](C)C(N)=O)[C@@H](C)OP(=O)(O)O	Serine/threonine-protein kinase PLK1, polo-box domain (PLK1, Homo sapiens, UniProt P53350, Y417A/Y421A)	isothermal titration calorimetry		Y417A/Y421A double mutant	1.04
C[C@@H](O)[C@H](NC(=O)c1ccc(C#CC#Cc2ccccc2)cc1)C(=O)NO	UDP-3-O-acyl-N-acetylglucosamine deacetylase C40S	binding, thermal shift		pH 7.0, equimolar ZnCl2	0.00835
CSCC[C@H](NC(=O)[C@H](Cc1ccc(OP(=O)(O)O)cc1)NC(=O)CNC(=O)CNC(=O)[C@H](CC(=O)O)NC(=O)[C@H](CO)NC(=O)[C@H](CCC(=O)O)NC(=O)CNC(=O)[C@@H](NC(=O)[C@H](CC(C)C)NC(=O)[C@H](CO)NC(=O)c1ccc2c(c1)C(=O)OC21c2ccc(N(C)C)cc2Oc2cc(N(C)C)ccc21)[C@@H](C)O)C(=O)N[C@@H](CC(=O)O)C(=O)N[C@@H](CCSC)C(=O)N[C@@H](CO)C(=O)N[C@@H](CCCCN)C(=O)N[C@@H](CC(=O)O)C(=O)N[C@@H](CCC(=O)O)C(=O)N[C@@H](CC(=O)O)C(=O)O	SRC SH2 domain	binding			0.342
Nc1nc2c(ncn2[C@@H]2O[C@@H]3COP(=O)(O)O[C@H]4[C@@H](O)[C@H](n5cnc6c(=O)[nH]c(N)nc65)O[C@@H]4COP(=O)(O)O[C@H]3[C@H]2O)c(=O)[nH]1	Cell cycle histidine kinase CckA, R374A; cytoplasmic region (Caulobacter vibrioides, UniProt Q9X688, R374A)	isothermal titration calorimetry	Caulobacter crescentus	12 °C, added: AMPPNP 5 mM	48
CC(=O)N[C@H](C(=O)N1C[C@H](O)C[C@H]1C(=O)NCc1ccc(-c2scnc2C)cc1)C(C)(C)SCCCCCCNC(=O)C[C@@H]1N=C(c2ccc(Cl)cc2)c2c(sc(C)c2C)-n2c(C)nnc21	BRD2/VHL, BD1; with VCB (Homo sapiens, UniProt P25440+P40337, K107A/Q101K/V106E)	ternary binding, ITC		25 °C, VCB titrated into complex, added: BRD2 BD1 KEA mutant	0.052 ± 0.018
CSCC[C@H](NC(=O)CNC(=O)[C@H](Cc1ccccc1)NC(=O)[C@H](CC(=O)O)NC(=O)CNC(=O)c1ccc2c(c1)C(=O)OC21c2ccc(N(C)C)cc2Oc2cc(N(C)C)ccc21)C(=O)N[C@@H](CO)C(=O)N[C@@H](CCCNC(=N)N)C(=O)N[C@@H](CC(=O)O)C(=O)N[C@H](C(=O)N[C@@H](Cc1ccc(OP(=O)(O)O)cc1)C(=O)N[C@@H](CO)C(=O)N[C@H](C(=O)N[C@@H](CC(=O)O)C(=O)N[C@@H](Cc1ccc(O)cc1)C(=O)N[C@@H](Cc1ccc(O)cc1)C(=O)N[C@@H](CCCNC(=N)N)C(=O)N[C@H](C(=O)N[C@@H](CC(=O)O)C(=O)O)C(C)C)[C@@H](C)O)C(C)C	SH2 domain-containing protein 2A, SH2 domain (SH2D2A, Homo sapiens, UniProt Q9NP31)				1.6
N[C@@H](Cc1ccc(O)c(I)c1)C(=O)O	Iodotyrosine deiodinase (Haliscomenobacter hydrossis, UniProt F4KU78, R38E)	binding			940 ± 140
CC[C@H](C)[C@H](NC(=O)[C@H](CC(=O)O)NC(=O)[C@H](C)NC(=O)[C@H](Cc1ccc(O)cc1)NC(=O)[C@H](CCCCN)NC(=O)c1ccc2c(c1)C(=O)OC21c2ccc(N(C)C)cc2Oc2cc(N(C)C)ccc21)C(=O)N[C@@H](CCC(=O)O)C(=O)N[C@@H](CO)C(=O)N[C@@H](CO)C(=O)N[C@@H](CC(N)=O)C(=O)N[C@@H](Cc1ccc(OP(=O)(O)O)cc1)C(=O)N[C@@H](CCSC)C(=O)N[C@@H](C)C(=O)N1CCC[C@H]1C(=O)N[C@@H](Cc1ccc(O)cc1)C(=O)N[C@@H](CC(=O)O)C(=O)N[C@@H](CC(N)=O)C(=O)N[C@@H](Cc1ccc(O)cc1)C(=O)N[C@@H](CC(=O)O)C(=O)O	SH2 domain-containing adapter protein F, SH2 domain (SHF, Homo sapiens, UniProt Q7M4L6)	binding			0.733
C[C@@H](O)[C@H](NC(=O)c1ccc(-c2ccccc2)cc1)C(=O)NCC1(C)NC(=O)NC1=O (stereo partly drawn)	UDP-3-O-acyl-N-acetylglucosamine deacetylase C40S	binding			> 100
CC[C@H](C)[C@H](NC(=O)[C@H](Cc1ccc(OP(=O)(O)O)cc1)NC(=O)[C@H](CCC(=O)O)NC(=O)[C@@H]1CCCN1C(=O)[C@@H](NC(=O)[C@@H]1CCCN1C(=O)[C@H](CC(C)C)NC(=O)[C@H](Cc1ccccc1)NC(=O)[C@@H](NC(=O)[C@H](CC(=O)O)NC(=O)[C@H](CC(=O)O)NC(=O)c1ccc2c(c1)C(=O)OC21c2ccc(N(C)C)cc2Oc2cc(N(C)C)ccc21)[C@@H](C)O)C(C)C)C(=O)N[C@@H](CC(N)=O)C(=O)N[C@@H](CCC(N)=O)C(=O)N[C@@H](CO)C(=O)N[C@H](C(=O)N1CCC[C@H]1C(=O)N[C@@H](CCCCN)C(=O)N[C@@H](CC(=O)O)C(=O)O)C(C)C	SRC SH2 domain	binding			1.79
CCCCCCCC(=O)OC[C@H](COP(=O)(O)O[C@@H]1[C@H](O)[C@H](OP(=O)(O)O)[C@@H](O)[C@H](O)[C@H]1O)OC(=O)CCCCCCC	PP2C family protein phosphatase (Vibrio splendidus, UniProt A0ABV4LX41, I196A)				0.95 ± 0.008
O=C(NO)[C@H]1COC(c2ccc(OC(F)(F)F)c(Cl)c2)=N1	UDP-3-O-acyl-N-acetylglucosamine deacetylase C40S	binding, thermal shift			3.8
O=C(O)CCCN1CC=C(c2ccccc2)CC1	Ubiquitin carboxyl-terminal hydrolase 33, ZnF-UBD domain (USP33, Homo sapiens, UniProt Q8TEY7)				> 1000
C[N+](C)(C)C	Chrnd/Chrna1/Chrne (Mus musculus, UniProt P02716+P04756+P20782, G173A/S470W)	single-channel kinetics		A chain side site	39
CC[C@@H](C)[C@@H](NC(=O)[C@@H](Cc1ccc(O)cc1)NC(=O)[C@H]1CCCN1C(=O)[C@@H](CCCNC(=N)N)NC(=O)[C@H](N)Cc1c[nH]cn1)C(=O)N[C@H](C)C(=O)N[C@H](Cc1c[nH]cn1)C(=O)N[C@H](CCCNC(=N)N)C(=O)N[C@@H](C(=O)N[C@H](Cc1ccc(O)cc1)C(=O)N[C@H](CO)C(=O)N[C@H](Cc1ccccc1)C(N)=O)C(C)C	Programmed cell death 1 ligand 1 (CD274, Homo sapiens, UniProt Q9NZQ7)	microscale thermophoresis		2 h, His-tagged protein	5.7 ± 0.4

For quick reference, copied from above:
SMILES	target	assay	test system	setting	Kd [µM]
O=C(O)CCCN1CC=C(c2ccccc2)CC1	Ubiquitin carboxyl-terminal hydrolase 33, ZnF-UBD domain (USP33, Homo sapiens, UniProt Q8TEY7)				> 1000
CCC1=C(C)C2=Cc3c(C)c(CCC(=O)O)c4[n]3[Ir-2]35([CH3])[n]6c(c(C)c(CC)c6=CC6=[N+]3C(=C4)C(CCC(=O)O)=C6C)=CC1=[N+]25	Cytochrome P450 119 (cyp119, Sulfolobus acidocaldarius, UniProt Q55080, L155W/T213G/V254L/C317G)	binding			4.1
